# Experimental data pooled from the literature.
# Protein sequences, listed by entry. Tags and fused reporters are not part of them.
# UniProt Q9NWZ3, whole entry: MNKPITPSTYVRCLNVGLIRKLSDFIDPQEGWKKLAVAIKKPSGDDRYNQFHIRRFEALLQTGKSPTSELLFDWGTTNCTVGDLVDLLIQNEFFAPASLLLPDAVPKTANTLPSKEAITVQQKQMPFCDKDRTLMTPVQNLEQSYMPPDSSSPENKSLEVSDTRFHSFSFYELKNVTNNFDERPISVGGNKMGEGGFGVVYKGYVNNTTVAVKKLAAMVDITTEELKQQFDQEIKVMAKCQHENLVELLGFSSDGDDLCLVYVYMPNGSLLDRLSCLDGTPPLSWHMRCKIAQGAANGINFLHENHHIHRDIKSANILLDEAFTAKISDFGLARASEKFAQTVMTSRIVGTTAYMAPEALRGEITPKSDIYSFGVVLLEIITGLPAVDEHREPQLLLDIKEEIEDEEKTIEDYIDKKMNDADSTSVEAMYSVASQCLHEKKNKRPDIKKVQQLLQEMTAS
# UniProt P50406, whole entry: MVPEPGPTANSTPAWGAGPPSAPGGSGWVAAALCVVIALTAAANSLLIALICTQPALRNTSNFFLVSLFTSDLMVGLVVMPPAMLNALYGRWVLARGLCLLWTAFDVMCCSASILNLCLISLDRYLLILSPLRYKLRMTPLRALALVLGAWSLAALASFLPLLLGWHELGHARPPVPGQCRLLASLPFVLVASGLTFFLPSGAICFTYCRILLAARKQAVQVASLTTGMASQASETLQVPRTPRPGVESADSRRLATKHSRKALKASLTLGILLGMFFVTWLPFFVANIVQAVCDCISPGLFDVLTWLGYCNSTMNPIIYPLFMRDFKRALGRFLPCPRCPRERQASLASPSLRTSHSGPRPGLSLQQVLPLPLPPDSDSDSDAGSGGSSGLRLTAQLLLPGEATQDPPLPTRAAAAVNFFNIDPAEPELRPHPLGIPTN
# Protocols differ between the studies behind these lines. ± gives the spread as reported.
Substance,target or system,assay,test system,conditions,how to read,measurement,value
CSc1nc(Cl)cc(Sc2nnc(-c3cc(C(F)(F)F)cc(C(F)(F)F)c3)[nH]2)n1,Salmonella Typhimurium,,SL1344,together with: NAB7061 4 µg/mL,,MIC,1 µg/mL
C[C@H](Cc1ccc(O)c(O)c1)[C@@H](C)Cc1ccc(O)c(O)c1,,,PEG 400 and PBS 70:30,"24 h, room temperature",,solubility,500 µg/mL
C=C(C)[C@@H]1[C@H]2OC(=O)[C@@H]1[C@]1(O)C[C@H]3O[C@]34C(=O)O[C@H]2[C@]14C,,,"male NIH-NCI Swiss mice, plasma","intraperitoneal, 2 mg/kg",,half-life,~15 min
CCCCCCCCCCCCCCCC(=O)NCCCC[C@H](NC(=O)CNC(=O)[C@H](CO)NC(=O)CNC(=O)[C@@H](NC(=O)[C@H](CO)NC(=O)[C@H](CC(=O)O)NC(=O)[C@H](CC(C)C)NC(=O)[C@@H](NC(=O)[C@H](CCCCN)NC(=O)[C@H](CC(N)=O)NC(=O)[C@H](CO)NC(=O)[C@H](CCCNC(=N)N)NC(=O)[C@H](CCCNC(=N)N)NC(=O)[C@@H](NC(=O)[C@H](Cc1c[nH]c2ccccc12)NC(=O)[C@H](CCC(=O)O)NC(=O)[C@H](CCCCN)NC(=O)[C@H](CO)NC(=O)[C@H](CCC(=O)O)NC(=O)[C@H](CCC(=O)O)NC(=O)[C@H](CC(C)C)NC(=O)[C@H](CC(=O)O)NC(=O)[C@H](CO)NC(=O)[C@H](CCCCN)NC(=O)[C@@H](NC(=O)[C@H](CCCCN)NC(=O)[C@H](CC(N)=O)NC(=O)[C@H](CC(C)C)NC(=O)[C@@H](NC(=O)[C@@H](NC(=O)[C@H](CO)NC(=O)[C@@H](NC(=O)[C@H](CC(=O)O)NC(=O)[C@@H](NC(=O)[C@@H]1CCCN1C(=O)[C@H](CC(=O)O)NC(=O)[C@H](CC(C)C)NC(=O)[C@H](C)NC(=O)[C@@H](N)C(C)C)[C@@H](C)CC)[C@@H](C)CC)[C@@H](C)CC)C(C)C)[C@@H](C)CC)[C@@H](C)CC)[C@@H](C)CC)[C@@H](C)CC)C(=O)O,,,water,,,solubility,20300 ± 1400 µg/mL
CCN1CCN(Cc2ccc(NC(=O)c3ccc(C)c(/C=C/c4cnc5[nH]ccc5c4OC)c3)cc2C(F)(F)F)CC1,TPM3-PDGFRB fusion,"kinase-CDC37 interaction, cell-based kinome screen",,5 µM,baseline: vehicle,log2 fold change,-0.207
CC#C/C(=N\OC[C@H]1COCCN1)c1ccc2ncnc(Nc3ccc(OCc4cccc(F)c4)c(Cl)c3)c2c1,"Interleukin-1 receptor-associated kinase 4 (IRAK4, Homo sapiens, UniProt Q9NWZ3)",kinase activity,,10 µM,,inhibition,3.8%
CC[C@H](C)[C@@H]([C@@H](CC(=O)N1CCC[C@H]1[C@H](OC)[C@@H](C)C(=O)NCCc1ccc(OP(=O)([O-])[O-])cc1)OC)N(C)C(=O)[C@@H](NC(=O)[C@H](C(C)C)N(C)C)C(C)C.[K+].[K+],,,distilled water,23 °C,,solubility,> 120000 µg/mL
Cc1cc(N(CCCl)CCCl)ccc1C(=O)O,,,mouse CD2F1,"iv, 20 mg/kg of bendamustine",,renal clearance,0.05 mL/min
CCCN1CCN(c2ccc3c(c2)C2CC3CCN2C(=O)OCc2ccccc2)CC1 (stereo not shown),"5-hydroxytryptamine receptor 6 (HTR6, Homo sapiens, UniProt P50406)","binding, radioligand binding",,,,Ki,2510 nM
COC(=O)[C@@]12OC[C@]34[C@H]([C@@H](O)[C@@H]1O)[C@@]1(C)CC(=O)C(OC(=O)C[C@H](C)N)=C(C)[C@@H]1C[C@H]3OC(=O)[C@H](OC(=O)C=C(C)C)[C@@H]24,,,"NOD/SCID mouse, male","24 days, every other day, combination 5 and 10 mg/kg",,maximum safe dose,≤ 10 mg/kg
cisplatin,,,water,,,solubility,2500 µg/mL
CO[C@]12CC[C@@]3(C[C@@H]1[C@](C)(O)C(C)(C)C)[C@H]1Cc4ccc(O)c5c4[C@@]3(CCN1)[C@H]2O5,,,Swiss-Webster mouse,"subcutaneous, 1 mg/kg",,onset of respiratory rate reduction,10 min
O=C(Nc1ccccc1)c1cc([N+](=O)[O-])ccc1Cl,,LC-MS/MS,"Sprague-Dawley rat, male, plasma","intravenous, 2.5 mg/kg",,Cmax,127 ng/mL

# Repeated from above:
Substance,target or system,assay,test system,conditions,how to read,measurement,value
CCCCCCCCCCCCCCCC(=O)NCCCC[C@H](NC(=O)CNC(=O)[C@H](CO)NC(=O)CNC(=O)[C@@H](NC(=O)[C@H](CO)NC(=O)[C@H](CC(=O)O)NC(=O)[C@H](CC(C)C)NC(=O)[C@@H](NC(=O)[C@H](CCCCN)NC(=O)[C@H](CC(N)=O)NC(=O)[C@H](CO)NC(=O)[C@H](CCCNC(=N)N)NC(=O)[C@H](CCCNC(=N)N)NC(=O)[C@@H](NC(=O)[C@H](Cc1c[nH]c2ccccc12)NC(=O)[C@H](CCC(=O)O)NC(=O)[C@H](CCCCN)NC(=O)[C@H](CO)NC(=O)[C@H](CCC(=O)O)NC(=O)[C@H](CCC(=O)O)NC(=O)[C@H](CC(C)C)NC(=O)[C@H](CC(=O)O)NC(=O)[C@H](CO)NC(=O)[C@H](CCCCN)NC(=O)[C@@H](NC(=O)[C@H](CCCCN)NC(=O)[C@H](CC(N)=O)NC(=O)[C@H](CC(C)C)NC(=O)[C@@H](NC(=O)[C@@H](NC(=O)[C@H](CO)NC(=O)[C@@H](NC(=O)[C@H](CC(=O)O)NC(=O)[C@@H](NC(=O)[C@@H]1CCCN1C(=O)[C@H](CC(=O)O)NC(=O)[C@H](CC(C)C)NC(=O)[C@H](C)NC(=O)[C@@H](N)C(C)C)[C@@H](C)CC)[C@@H](C)CC)[C@@H](C)CC)C(C)C)[C@@H](C)CC)[C@@H](C)CC)[C@@H](C)CC)[C@@H](C)CC)C(=O)O,,,water,,,solubility,20300 ± 1400 µg/mL
